# Experimental data of several laboratories.
# pIC50: −log10 of the molar value.
# Chain of UniProt Q16512 (whole entry, looked up): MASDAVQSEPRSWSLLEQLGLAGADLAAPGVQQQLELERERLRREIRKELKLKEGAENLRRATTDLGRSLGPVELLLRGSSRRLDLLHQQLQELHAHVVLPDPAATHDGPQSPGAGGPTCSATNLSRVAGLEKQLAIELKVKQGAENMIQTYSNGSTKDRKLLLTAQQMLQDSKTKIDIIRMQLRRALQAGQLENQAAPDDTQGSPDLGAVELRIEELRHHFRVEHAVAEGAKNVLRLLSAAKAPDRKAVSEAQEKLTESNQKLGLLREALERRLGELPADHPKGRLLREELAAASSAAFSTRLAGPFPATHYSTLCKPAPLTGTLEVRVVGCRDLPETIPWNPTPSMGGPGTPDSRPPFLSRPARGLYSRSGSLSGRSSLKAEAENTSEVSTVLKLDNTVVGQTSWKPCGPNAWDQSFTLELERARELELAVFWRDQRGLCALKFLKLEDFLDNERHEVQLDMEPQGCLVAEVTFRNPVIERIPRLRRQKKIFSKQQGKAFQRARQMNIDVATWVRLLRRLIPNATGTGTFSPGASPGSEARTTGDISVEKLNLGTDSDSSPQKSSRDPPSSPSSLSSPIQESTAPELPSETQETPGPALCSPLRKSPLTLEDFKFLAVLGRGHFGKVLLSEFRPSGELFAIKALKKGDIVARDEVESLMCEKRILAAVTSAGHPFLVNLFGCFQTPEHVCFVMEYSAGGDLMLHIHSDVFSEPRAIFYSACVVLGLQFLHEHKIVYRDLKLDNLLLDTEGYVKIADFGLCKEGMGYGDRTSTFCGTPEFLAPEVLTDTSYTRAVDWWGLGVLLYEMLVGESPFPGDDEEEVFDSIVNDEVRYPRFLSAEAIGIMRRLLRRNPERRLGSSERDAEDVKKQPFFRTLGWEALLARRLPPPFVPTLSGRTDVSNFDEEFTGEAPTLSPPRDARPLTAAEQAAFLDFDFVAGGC
# Chain of UniProt O60883 (whole entry, looked up): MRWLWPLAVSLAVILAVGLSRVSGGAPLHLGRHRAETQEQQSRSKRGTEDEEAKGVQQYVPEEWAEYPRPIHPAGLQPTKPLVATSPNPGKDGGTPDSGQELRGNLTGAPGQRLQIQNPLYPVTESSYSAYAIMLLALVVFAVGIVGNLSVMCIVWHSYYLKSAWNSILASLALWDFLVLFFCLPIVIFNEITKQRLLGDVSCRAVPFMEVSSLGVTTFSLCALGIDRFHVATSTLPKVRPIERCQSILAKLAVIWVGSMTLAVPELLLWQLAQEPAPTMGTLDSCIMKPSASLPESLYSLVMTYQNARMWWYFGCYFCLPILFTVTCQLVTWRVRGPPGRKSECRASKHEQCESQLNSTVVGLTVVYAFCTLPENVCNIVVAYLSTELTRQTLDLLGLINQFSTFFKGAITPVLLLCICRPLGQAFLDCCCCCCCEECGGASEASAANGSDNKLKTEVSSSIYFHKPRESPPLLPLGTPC
# Chain of UniProt P35414 (whole entry, looked up): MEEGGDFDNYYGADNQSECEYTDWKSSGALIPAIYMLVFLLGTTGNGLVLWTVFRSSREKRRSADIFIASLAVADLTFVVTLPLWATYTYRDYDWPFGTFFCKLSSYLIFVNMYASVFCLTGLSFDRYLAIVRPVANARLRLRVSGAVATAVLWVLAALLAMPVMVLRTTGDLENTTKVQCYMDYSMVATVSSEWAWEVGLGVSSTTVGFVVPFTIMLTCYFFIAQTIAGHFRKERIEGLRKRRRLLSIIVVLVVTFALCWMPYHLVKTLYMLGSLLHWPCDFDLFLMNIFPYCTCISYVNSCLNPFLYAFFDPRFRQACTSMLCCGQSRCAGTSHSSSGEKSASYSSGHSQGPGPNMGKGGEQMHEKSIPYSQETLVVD
# Chain of UniProt O75116 (whole entry, looked up): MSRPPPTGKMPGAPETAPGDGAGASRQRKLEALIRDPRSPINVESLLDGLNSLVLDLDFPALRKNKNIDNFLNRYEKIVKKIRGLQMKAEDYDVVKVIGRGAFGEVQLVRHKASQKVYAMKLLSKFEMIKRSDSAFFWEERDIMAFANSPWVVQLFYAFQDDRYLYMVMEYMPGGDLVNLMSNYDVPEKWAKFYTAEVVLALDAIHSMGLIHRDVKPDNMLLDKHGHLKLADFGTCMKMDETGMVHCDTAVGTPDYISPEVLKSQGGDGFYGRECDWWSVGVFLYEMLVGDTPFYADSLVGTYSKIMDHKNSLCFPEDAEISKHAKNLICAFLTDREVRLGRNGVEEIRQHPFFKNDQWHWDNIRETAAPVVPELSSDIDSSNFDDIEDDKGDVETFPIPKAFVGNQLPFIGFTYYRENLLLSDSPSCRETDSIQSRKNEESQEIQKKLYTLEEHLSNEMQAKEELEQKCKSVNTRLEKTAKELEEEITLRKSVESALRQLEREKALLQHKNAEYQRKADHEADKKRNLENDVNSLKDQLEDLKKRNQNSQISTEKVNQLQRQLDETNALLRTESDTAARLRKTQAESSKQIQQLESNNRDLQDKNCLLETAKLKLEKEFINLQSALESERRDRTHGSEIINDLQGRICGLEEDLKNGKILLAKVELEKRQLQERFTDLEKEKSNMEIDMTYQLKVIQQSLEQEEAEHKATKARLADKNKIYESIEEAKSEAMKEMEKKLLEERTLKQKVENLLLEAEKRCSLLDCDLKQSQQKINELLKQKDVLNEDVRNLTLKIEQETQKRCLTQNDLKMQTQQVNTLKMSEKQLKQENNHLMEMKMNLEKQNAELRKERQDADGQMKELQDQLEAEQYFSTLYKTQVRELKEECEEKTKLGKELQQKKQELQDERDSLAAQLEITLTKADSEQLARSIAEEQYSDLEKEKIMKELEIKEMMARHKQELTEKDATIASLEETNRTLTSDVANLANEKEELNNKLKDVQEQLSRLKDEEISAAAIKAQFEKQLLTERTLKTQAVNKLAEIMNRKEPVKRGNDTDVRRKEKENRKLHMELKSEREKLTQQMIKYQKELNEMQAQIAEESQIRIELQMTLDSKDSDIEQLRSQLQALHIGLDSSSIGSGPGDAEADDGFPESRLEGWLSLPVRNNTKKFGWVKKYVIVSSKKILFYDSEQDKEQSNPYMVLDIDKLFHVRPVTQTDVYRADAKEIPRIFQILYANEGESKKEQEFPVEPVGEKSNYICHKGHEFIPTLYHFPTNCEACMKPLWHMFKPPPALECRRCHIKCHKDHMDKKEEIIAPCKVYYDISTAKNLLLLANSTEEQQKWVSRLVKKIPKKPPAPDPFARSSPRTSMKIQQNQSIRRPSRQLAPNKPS
# Chain of UniProt P15823 (whole entry, looked up): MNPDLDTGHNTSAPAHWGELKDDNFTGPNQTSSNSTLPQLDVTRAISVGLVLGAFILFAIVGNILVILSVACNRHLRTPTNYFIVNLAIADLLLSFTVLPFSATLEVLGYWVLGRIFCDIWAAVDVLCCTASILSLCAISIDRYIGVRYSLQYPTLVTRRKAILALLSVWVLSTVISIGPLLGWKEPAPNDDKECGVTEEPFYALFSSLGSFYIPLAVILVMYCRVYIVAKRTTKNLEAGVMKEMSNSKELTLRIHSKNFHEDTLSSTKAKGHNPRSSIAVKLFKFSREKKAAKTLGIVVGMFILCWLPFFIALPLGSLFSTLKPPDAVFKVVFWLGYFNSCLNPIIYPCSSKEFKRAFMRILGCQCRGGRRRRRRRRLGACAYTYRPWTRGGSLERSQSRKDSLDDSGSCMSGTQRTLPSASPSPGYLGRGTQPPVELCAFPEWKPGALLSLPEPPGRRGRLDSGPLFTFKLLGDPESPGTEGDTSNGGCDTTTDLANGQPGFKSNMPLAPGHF
# Chain of UniProt P19784 (whole entry, looked up): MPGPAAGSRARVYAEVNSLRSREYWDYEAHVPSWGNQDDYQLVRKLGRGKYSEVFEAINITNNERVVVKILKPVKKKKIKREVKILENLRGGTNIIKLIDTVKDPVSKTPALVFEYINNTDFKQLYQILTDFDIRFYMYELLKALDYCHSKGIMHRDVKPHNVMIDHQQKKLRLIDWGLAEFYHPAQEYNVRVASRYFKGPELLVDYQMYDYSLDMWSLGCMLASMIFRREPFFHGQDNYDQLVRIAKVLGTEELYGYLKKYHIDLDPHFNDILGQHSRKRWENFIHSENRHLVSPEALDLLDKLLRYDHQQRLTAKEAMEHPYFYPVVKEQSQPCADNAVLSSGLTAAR
# Chain of UniProt P31751 (whole entry, looked up): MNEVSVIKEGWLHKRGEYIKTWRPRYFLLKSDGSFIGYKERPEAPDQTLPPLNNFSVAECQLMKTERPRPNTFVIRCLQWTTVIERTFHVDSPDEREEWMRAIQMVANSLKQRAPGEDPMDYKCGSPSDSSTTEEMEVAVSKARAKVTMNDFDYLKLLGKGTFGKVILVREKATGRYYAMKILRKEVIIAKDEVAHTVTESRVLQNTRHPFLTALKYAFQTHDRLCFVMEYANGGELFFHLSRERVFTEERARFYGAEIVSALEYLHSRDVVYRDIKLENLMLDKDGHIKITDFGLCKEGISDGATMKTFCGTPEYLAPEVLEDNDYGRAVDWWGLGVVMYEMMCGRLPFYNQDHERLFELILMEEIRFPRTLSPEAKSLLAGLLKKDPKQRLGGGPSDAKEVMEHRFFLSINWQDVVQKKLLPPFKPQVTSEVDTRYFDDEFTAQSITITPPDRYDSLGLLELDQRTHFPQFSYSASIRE
# Chain of UniProt P32239 (whole entry, looked up): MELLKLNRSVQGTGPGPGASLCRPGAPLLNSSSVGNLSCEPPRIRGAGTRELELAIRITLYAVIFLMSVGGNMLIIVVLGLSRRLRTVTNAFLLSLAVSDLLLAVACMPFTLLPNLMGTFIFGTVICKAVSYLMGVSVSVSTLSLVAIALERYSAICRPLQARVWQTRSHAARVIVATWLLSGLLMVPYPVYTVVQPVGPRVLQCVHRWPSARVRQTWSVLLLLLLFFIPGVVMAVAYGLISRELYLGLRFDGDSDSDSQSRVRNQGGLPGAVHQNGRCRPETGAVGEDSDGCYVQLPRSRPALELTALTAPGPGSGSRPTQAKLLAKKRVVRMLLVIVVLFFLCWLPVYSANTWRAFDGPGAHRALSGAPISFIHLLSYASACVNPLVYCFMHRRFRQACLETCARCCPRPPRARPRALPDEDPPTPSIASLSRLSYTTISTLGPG
Compound,target or system,test,test system,setting,how to read,quantity,value
COc1cc(Nc2ncc(F)c(Nc3ccc4c(n3)NC(=O)C(C)(C)O4)n2)cc(OC)c1OC,"Serine/threonine-protein kinase N1 (PKN1, Homo sapiens, UniProt Q16512)",KINOMEscan,,10 µM,,inhibition,96%
FC(F)(F)c1cccc(Nc2nc(NCCOc3ccccc3)nc3[nH]cnc23)c1,"Casein kinase II subunit alpha' (CSNK2A2, Homo sapiens, UniProt P19784)","enzyme activity, inhibitor, Thermo Fisher kinase screening",,5 µM,,inhibition,6%
C[C@H]1CN(c2n[nH]c3nc(N[C@H]4CC[C@H](NS(=O)(=O)CCC(F)(F)F)CC4)ncc23)CCO1,"RAC-beta serine/threonine-protein kinase (AKT2, Homo sapiens, UniProt P31751)","inhibitor, Kinobeads competition profiling",,0.16 µM,relative to: vehicle,relative abundance,1.1
CC(C)N1CCC[C@H]1CNC(=O)c1cn(C2CCCC2)c(=O)c2c1c1ccccc1n2C,thyroid hormone receptor (rat),radioligand binding,,10 µM,,inhibition,7%
CN(C(=O)n1cnc(-c2ccc[n+]([O-])c2)c1)C1CCCCC1,"Gastrin/cholecystokinin type B receptor (CCKBR, Homo sapiens, UniProt P32239)",radioligand binding,,50 µM,,inhibition,7%
CN1CCN(c2cc(-c3ccncc3)c(-c3ccc4ccccc4c3)nn2)CC1,"Apelin receptor (APLNR, Homo sapiens, UniProt P35414)","antagonist, FLIPR",,10 µM,,inhibition,-5.5%
Cc1ncc(C)n2nc(/C=C/c3nc(N4CCCC4)cc(N4CCOCC4)n3)nc12,GABA-gated chloride channel,radioligand binding,,10 µM,,inhibition,20%
O=C(Nc1cnccc1Cl)N1CCN(Cc2ccc3c(c2)OC(F)(F)O3)CC1,"Alpha-1B adrenergic receptor (Adra1b, Rattus norvegicus, UniProt P15823)",binding,,"50 µM, together with: [3H]prazosin",,inhibition,3%
O=C(Cc1ccc(Cl)c(Cl)c1)N1CCCCC1CN1CCCC1 (centres unmarked),Plasmodium falciparum,,W2,,,pIC50,5.70
COc1ccc(N2C(=O)N(c3c(C)cccc3Cl)Cc3cnc(Nc4ccc(C5CCN(C)CC5)cc4OC)nc32)nc1,"Rho-associated protein kinase 2 (ROCK2, Homo sapiens, UniProt O75116)",kinase activity,,0.5 µM,,inhibition,-0.45%
CNCCC=C1c2ccccc2CCc2ccccc21,Plasmodium falciparum,,GB4,,,pIC50,5.20
COCc1c(-c2cc3cc(C)cc(OC)c3s2)c2c(N)ncnn2c1CN1CCNC(=O)C1,GABAB receptor,radioligand binding,,10 µM,,inhibition,0%
Oc1ccc2c3c1O[C@H]1[C@@H](O)CC[C@@]4(O)[C@@H](C2)N(CC2CCC2)CC[C@]314,"G-protein coupled receptor 37-like 1 (GPR37L1, Homo sapiens, UniProt O60883)","β-arrestin recruitment, TANGO luminescence",,concentration not given,relative to: basal luminescence,log2 fold change,0.297
CN(CCN1CCC(OC(=O)Nc2ccccc2-c2ccccc2)CC1)C(=O)c1ccc(CN2CCC(C(N)=O)CC2)cc1,rat PCP site,radioligand binding,,"1 µM, together with: [3H]TCP 5.0 nM",,inhibition,-11%

# Some of these lines once more:
Compound,target or system,test,test system,setting,how to read,quantity,value
Cc1ncc(C)n2nc(/C=C/c3nc(N4CCCC4)cc(N4CCOCC4)n3)nc12,GABA-gated chloride channel,radioligand binding,,10 µM,,inhibition,20%
